Measurements collected from several papers.
Protocols differ between the studies behind these lines. ± gives the spread as reported.
Proteasome component C5/PSMB5: Proteasome component C5/PSMB5 (Homo sapiens, UniProt P20618+P28074)
UniProt P28074, sequence (whole entry, looked up): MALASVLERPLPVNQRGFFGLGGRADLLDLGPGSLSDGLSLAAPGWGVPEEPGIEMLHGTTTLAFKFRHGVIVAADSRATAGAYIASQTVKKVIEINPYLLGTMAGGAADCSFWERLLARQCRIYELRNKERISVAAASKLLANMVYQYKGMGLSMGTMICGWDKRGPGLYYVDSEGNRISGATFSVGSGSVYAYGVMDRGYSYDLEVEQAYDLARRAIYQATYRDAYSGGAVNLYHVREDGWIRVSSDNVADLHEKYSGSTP
UniProt P20618, sequence (whole entry, looked up): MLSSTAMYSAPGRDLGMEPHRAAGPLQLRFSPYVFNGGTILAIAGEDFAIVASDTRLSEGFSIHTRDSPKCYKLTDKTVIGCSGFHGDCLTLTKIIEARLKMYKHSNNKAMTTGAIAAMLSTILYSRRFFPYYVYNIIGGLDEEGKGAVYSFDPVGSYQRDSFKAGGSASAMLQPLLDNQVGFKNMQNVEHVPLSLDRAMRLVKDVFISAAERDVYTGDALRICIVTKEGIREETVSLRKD
Protein AF-9 with DOT1L: Protein AF-9, with DOT1L (Homo sapiens, UniProt P42568)
UniProt P42568, sequence (whole entry, looked up): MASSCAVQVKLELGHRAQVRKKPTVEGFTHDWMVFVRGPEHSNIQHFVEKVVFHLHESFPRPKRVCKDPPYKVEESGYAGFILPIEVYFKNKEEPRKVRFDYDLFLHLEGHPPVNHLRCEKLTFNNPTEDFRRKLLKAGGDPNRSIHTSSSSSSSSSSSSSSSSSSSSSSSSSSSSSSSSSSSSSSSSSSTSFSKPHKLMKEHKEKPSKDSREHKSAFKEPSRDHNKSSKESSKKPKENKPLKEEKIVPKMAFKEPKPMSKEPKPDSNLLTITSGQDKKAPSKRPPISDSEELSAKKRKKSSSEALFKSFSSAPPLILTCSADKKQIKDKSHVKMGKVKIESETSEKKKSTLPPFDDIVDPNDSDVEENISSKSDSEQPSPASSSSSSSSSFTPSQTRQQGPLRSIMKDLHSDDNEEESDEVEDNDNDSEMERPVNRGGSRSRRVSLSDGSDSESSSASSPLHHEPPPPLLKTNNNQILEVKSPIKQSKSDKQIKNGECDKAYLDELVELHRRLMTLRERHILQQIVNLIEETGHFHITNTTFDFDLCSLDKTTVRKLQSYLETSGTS
CSNK1D: Casein kinase I isoform delta (CSNK1D, Homo sapiens, UniProt P48730)
UniProt P48730, sequence (whole entry, looked up): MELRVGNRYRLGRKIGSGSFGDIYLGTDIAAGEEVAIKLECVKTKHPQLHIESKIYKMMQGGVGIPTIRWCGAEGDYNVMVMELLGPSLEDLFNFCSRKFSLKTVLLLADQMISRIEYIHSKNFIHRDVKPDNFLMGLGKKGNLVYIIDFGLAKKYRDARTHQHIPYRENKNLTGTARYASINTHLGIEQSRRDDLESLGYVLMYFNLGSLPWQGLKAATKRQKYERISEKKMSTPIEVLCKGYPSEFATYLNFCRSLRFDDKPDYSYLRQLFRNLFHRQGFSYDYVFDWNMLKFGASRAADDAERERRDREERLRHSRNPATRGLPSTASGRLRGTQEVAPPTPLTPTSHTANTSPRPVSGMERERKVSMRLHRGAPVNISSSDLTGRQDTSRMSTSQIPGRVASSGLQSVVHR
PSMB5: Proteasome Macropain subunit MB1 (PSMB5, Homo sapiens, UniProt P28074)
UniProt P00747, sequence (whole entry, looked up): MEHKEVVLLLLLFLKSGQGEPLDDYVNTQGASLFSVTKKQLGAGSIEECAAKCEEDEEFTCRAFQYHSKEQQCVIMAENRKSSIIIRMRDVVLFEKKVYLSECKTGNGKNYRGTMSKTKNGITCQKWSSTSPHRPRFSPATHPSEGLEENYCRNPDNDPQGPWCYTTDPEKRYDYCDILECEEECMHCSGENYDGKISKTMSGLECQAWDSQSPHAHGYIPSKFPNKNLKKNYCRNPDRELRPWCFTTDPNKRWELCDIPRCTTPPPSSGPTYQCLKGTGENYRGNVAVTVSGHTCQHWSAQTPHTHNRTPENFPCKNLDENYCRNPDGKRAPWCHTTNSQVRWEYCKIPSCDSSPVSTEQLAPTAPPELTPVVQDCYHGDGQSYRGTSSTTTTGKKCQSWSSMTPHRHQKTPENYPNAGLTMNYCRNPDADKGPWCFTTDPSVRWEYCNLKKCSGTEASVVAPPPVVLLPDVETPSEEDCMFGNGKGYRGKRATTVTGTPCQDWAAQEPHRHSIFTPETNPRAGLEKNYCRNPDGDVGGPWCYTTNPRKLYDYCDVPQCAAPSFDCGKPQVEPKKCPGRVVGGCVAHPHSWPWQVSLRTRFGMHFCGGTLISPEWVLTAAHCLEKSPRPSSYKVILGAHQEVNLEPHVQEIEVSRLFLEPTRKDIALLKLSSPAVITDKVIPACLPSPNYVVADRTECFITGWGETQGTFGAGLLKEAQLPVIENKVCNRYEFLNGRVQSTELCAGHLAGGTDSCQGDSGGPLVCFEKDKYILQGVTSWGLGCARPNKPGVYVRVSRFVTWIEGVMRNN
UniProt Q9Y6L6, sequence (whole entry, looked up): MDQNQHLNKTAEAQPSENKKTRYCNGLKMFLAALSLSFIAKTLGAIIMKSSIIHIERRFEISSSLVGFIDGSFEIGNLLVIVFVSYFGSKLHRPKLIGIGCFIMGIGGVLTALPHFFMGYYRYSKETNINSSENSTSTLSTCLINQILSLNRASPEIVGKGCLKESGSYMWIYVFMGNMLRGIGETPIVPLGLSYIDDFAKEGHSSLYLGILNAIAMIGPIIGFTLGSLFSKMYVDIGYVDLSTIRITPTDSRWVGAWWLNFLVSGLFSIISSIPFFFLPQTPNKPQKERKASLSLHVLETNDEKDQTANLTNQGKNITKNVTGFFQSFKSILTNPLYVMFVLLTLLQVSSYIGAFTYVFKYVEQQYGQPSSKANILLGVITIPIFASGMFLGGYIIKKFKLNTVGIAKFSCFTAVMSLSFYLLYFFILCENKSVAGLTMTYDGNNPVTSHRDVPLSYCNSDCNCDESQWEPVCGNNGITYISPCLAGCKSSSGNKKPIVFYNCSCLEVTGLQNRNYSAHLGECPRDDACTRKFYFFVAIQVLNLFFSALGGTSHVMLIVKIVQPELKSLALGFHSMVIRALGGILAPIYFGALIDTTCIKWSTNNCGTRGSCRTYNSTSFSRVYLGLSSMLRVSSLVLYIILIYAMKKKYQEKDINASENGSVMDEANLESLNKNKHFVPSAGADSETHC
UniProt P37231, sequence (whole entry, looked up): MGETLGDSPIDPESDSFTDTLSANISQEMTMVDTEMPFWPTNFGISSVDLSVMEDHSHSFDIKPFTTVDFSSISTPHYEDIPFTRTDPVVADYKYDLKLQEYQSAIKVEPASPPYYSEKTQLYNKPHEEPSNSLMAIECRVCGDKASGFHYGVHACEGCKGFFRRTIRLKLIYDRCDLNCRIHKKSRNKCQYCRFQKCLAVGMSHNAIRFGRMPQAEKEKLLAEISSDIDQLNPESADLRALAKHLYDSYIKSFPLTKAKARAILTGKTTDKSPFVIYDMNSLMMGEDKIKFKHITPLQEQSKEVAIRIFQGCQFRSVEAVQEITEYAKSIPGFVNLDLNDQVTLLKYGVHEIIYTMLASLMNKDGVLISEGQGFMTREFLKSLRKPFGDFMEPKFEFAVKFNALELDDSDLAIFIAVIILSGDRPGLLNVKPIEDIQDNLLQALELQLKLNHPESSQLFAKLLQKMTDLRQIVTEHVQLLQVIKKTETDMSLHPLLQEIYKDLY
UniProt P10275, sequence (whole entry, looked up): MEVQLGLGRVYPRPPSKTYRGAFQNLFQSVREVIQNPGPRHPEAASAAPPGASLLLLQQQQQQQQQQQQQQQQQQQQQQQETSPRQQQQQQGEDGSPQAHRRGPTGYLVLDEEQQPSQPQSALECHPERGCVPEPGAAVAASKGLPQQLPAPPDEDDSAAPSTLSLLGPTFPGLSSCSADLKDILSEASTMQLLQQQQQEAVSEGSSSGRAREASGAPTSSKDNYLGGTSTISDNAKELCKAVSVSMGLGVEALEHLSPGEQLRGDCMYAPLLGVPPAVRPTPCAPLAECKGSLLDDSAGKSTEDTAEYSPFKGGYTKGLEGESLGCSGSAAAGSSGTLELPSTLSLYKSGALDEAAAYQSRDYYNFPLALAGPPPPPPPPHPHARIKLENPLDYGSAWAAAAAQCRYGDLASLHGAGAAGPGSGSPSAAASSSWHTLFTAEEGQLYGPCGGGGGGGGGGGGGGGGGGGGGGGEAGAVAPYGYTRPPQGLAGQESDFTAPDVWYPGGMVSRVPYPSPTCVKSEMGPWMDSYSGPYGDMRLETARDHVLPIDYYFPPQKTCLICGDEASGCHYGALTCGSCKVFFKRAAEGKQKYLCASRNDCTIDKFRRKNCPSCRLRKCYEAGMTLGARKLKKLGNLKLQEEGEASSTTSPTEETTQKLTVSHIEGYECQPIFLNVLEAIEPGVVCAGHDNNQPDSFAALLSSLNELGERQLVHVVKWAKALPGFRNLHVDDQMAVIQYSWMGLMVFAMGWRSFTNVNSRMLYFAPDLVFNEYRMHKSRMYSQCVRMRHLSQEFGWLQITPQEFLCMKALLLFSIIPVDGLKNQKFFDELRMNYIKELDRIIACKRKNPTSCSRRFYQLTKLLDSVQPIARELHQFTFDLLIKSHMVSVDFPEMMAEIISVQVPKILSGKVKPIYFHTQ
UniProt P00383, sequence (whole entry, looked up): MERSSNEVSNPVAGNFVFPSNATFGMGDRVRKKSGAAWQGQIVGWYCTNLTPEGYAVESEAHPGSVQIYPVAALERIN

| SMILES | target | test | test system | conditions | IC50 |
| --- | --- | --- | --- | --- | --- |
| CC(C)C[C@H](NC(=O)[C@H](CCc1ccccc1)NC(=O)CN1CCOCC1)C(=O)N[C@@H](Cc1ccccc1)C(=O)NN(CC(C)C)C(=O)C=O | Proteasome component C5/PSMB5 | β5 chymotrypsin-like activity, inhibitor | – | together with: Suc-LLVY-AMC 100 µM | 2600 ± 800 nM |
| CN1CCN(c2ccc(Nc3ncc4cc(C#N)c(=O)n(C5CCCC5)c4n3)cc2)CC1 | NEK1 (Homo sapiens, UniProt Q96PY6) | – | – | – | 3220 nM |
| CCn1cc(C(=O)Nc2cccc(O)c2)c(=O)c2cc(F)c(N3CCN(C(C)=O)CC3)cc21 | RET (Homo sapiens, UniProt P07949) | kinase activity, inhibitor | – | replicate three, together with: 1 µM ATP, poly(Glu,Tyr) | 18100 nM |
| COCc1nn(Cc2ccc(Cn3ccccc3=O)cc2)cc1C(=O)NCc1c(Cl)ccc(OC)c1F | Plasminogen (PLG, Homo sapiens, UniProt P00747) | – | – | – | > 40000 nM |
| Fc1ccc(Oc2ccc(Nc3ccc4ncc(OCC5CCNCC5)nc4c3)cc2)cc1 | Protein AF-9 with DOT1L | DOT1L binding, AlphaLISA | – | – | 1500 ± 130 nM |
| O=C1C(SCCO)=C(SCCO)C(=O)c2ccccc21 | TGM2 (Homo sapiens, UniProt P21980) | enzyme activity, inhibitor | – | together with: DTT 10 mM | > 50000 nM |
| Cc1cccc(Nc2ccc3ncc(OCC4CCNCC4)nc3c2)c1 | Protein AF-9 with DOT1L | DOT1L binding, AlphaLISA | – | – | 4700 nM |
| Fc1ccc(-c2c(-c3ccncc3)ncn2-c2ccc(-c3ccccc3)cc2)cc1 | CSNK1D | inhibitor | – | – | 656 ± 70.9 nM |
| COC(=O)c1ccc2nc(-c3ccc(OCCCNCc4ccccc4)c(Br)c3)[nH]c2c1 | Dihydrofolate reductase type 2 (Escherichia coli, UniProt P00383) | enzyme activity | – | pH 7 | > 30000 nM |
| Cc1cccc(C)c1-c1nc(-c2ccc(F)cc2)c(-c2ccncc2)[nH]1 | CSNK1D | inhibitor | – | – | 22.7 ± 1.5 nM |
| N#Cc1ccc2nc(Nc3ccc(N4CCOCC4)c(Cl)c3)[nH]c2c1 | CSNK1D | NanoBRET tracer K8 binding | intact cells | – | > 30000 nM |
| Cc1ncc(C(=O)N[C@@H](CC(C)C)C(=O)N[C@@H](CC2CCCCC2)C(=O)N[C@H](/C=C/S(C)(=O)=O)Cc2ccc(CN)cc2)s1 | PSMB5 | competitive ABPP | Raji cell lysate | – | > 10000 nM |
| C=CC(=O)Nc1cc(Nc2nccc(-c3cn(C)c4ccccc34)n2)c(OC)cc1N(C)CCN(C)C | SLCO1B1 (Homo sapiens, UniProt Q9Y6L6) | transport | – | – | 22000 nM |
| C[C@@H]1O[C@@H](O[C@@H]2[C@@H](O)[C@H](OCCc3ccc(O)c(O)c3)O[C@H](CO)[C@H]2OC(=O)/C=C/c2ccc(O)c(O)c2)[C@H](O)[C@H](O)[C@H]1O | alpha-glucosidase | inhibitor | biochemical | – | 42.28 ± 0.17 µg/mL |
| Cc1ncc(C(=O)N[C@@H](CC2CCC(C3CCCCC3)CC2)C(=O)N[C@@H](CC(C)C)C(=O)N[C@H](/C=C/S(C)(=O)=O)Cc2ccc(CN)cc2)s1 (stereo partly drawn) | PSMB5 | competitive ABPP | Raji cell lysate | – | > 10000 nM |
| CC(C)C[C@H](NC(=O)[C@H](CCc1ccccc1)NC(=O)CN1CCOCC1)C(=O)N[C@@H](Cc1ccccc1)C(=O)NN(CC(C)C)C(=O)/C=C/C(=O)NCc1ccccc1 | Proteasome component C5/PSMB5 | chymotrypsin-like activity, inhibitor | human 20S proteasome | together with: Suc-LLVY-AMC 100 µM | 200 ± 100 nM |
| C[C@H](CCC(=O)O)[C@@H]1CC[C@H]2[C@@H]3CCC4=CC(=O)CC[C@]4(C)[C@H]3CC[C@@]21C | Androgen receptor (AR, Homo sapiens, UniProt P10275) | reporter gene, antagonist, luciferase reporter | cells expressing human AR | together with: 45 pM agonist | 134 nM |
| O=C(Nc1ccccc1)c1cc([N+](=O)[O-])ccc1Cl | PPARG (Homo sapiens, UniProt P37231) | TR-FRET competitive binding | – | together with: Fluormone tracer | 5 nM |

Excerpt of the above:
| SMILES | target | test | test system | conditions | IC50 |
| --- | --- | --- | --- | --- | --- |
| CC(C)C[C@H](NC(=O)[C@H](CCc1ccccc1)NC(=O)CN1CCOCC1)C(=O)N[C@@H](Cc1ccccc1)C(=O)NN(CC(C)C)C(=O)C=O | Proteasome component C5/PSMB5 | β5 chymotrypsin-like activity, inhibitor | – | together with: Suc-LLVY-AMC 100 µM | 2600 ± 800 nM |
